Experimental data from different studies.
Each numbered part is a random draw from the data of one study; scales do not carry over between parts. Positions count from the first letter of the parent shown.

Set 1
Target: RNA binding protein fox-1 homolog 2, RRM domain, GST-SBP tag (RBFOX2, Homo sapiens, UniProt O43251-10, residues 100-194)
Technique: RNA Bind-n-Seq
Molecule type: RNA
Matrix: in vitro
Tested at: 365 nM
Setting: natural RNA segment, single round, ends assumed
Relative to: no-protein control
Reading: higher = stronger binding
| Sequence | RBNS enrichment (R) |
| --- | --- |
| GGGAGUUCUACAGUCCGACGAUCCAGCAACGAGUACCUUCUCCCGCCUUGCCUCAGCGUAGAAGGGCUGCACUCUUGGCUGGUGUGAGUCAGCUACAGAGAAGGUAAUACGCCAUGUGGGAGGCCAAGGAGGCUGGAAUUCUCGGGUGCCAA | 0.527 |
| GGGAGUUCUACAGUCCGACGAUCAUUUUAGAUAUAUAUACUUUGUUUUGGAAUAUUUGGUUGUAUAAAAUGUAAUGAGUGAGCUAAUUGAUUUUUUAGACCAUAUUUGAAGAUGUGGAUGACUUACAAGAAACUGGAAUUCUCGGGUGCCAA | 0.745 |
| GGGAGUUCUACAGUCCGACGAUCUACAUUUCACAUUUUGUAUUUUUUUUUAUGUGUGUGUGUCUGUAUUCUGGUGUUUGUAACACCAAAGUGGAAAAUACAGCCCAUGGCAUGGGUGCUGUGAAGUUGAGAUGUGGAAUUCUCGGGUGCCAA | 1.5 |
| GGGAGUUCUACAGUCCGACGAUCACUGAAUCUUCUCUCAGAGGGAGAUGAGCAAUUGUCAGUCAGGAUAAUUCUGUUUGCUAAAUGUUGCCUUUAUGCUUUCAAACUGAAUUAAACCCAUUGUGAGGUUGACAUGGAAUUCUCGGGUGCCAA | 0.601 |
| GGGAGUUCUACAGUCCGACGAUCAGGGCAGGAGAGAGUGGACAGCAAGACUGAGAAGAUGUGAACAAAUGAGAUUUAAUCCACCAAGGAGAAUUGGUUGGGUUUGUUUAGCCUCUAAAGUUAUAGAAAGAAUGUGGAAUUCUCGGGUGCCAA | 2.76 |
| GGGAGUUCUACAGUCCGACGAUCUUCCUCUGGAGUGAUGCUGUGCCAUGCUGGUCUUUGCUUCUAGUAAUAAAACAUCAAAUUAGGUUUGGAGGGAACUUUGAUCUUCCUAAGAAUUAAAGUUGCCAAAUUAUUGGAAUUCUCGGGUGCCAA | 0.492 |
| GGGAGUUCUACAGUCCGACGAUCGCAUUGGUACUGGUCUGAGCCACCUGCUACCCAGUAGAUAGAUAACCUUUUUGUUAGUGUUUAAGGGAGCCCCUGAAGAGACUCAACAGAACAGUGAGAGGAGAGAGAGAUGGAAUUCUCGGGUGCCAA | 0.427 |
| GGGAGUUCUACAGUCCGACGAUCGACCAAAAGUCCCCAGUGACACCAACACAAAGCUCGCAGUUCCGUUUCCUUCUCGUUCCUAUUCUCCGUCCUCCACAUGCAGUCCUUUGCUCAGGAAGUCUUUGGGGAAAUGGAAUUCUCGGGUGCCAA | 0.513 |

Set 2
Target: CCND2, cyclin fold, Cln2 fusion (human)
Technique: yeast growth competition, sequencing
Matrix: yeast
Setting: strong parent motif
Relative to: not given
Reading: higher = stronger binding
Starting sequence: E2F1 docking peptide (human); PPVKRRLDFETDH
| Substitution | normalised enrichment score |
| --- | --- |
| T11P | 1.31 |
| R5H | -0.279 |
| V3E | 0.142 |
| R5D | 0.737 |
| T11V | 1.66 |
| V3H | 0.743 |
| R6Q | 0.746 |
| V3S | 1.07 |
| D8Y | 1.2 |
| F9I | 0.291 |
| F9T | 0.271 |
| V3C | 1.45 |
| R5G | 0.281 |
| K4R | 2.58 |
| K4C | 3.27 |
| D8A | 1.47 |
| D8W | 0.605 |
| V3G | 0.603 |
| P2H | 1.13 |
| D8N | 1.95 |
| D12F | 1.68 |
| D12P | 2.26 |
| P2G | 1.34 |
| V3T | 1.9 |
| E10A | 1.57 |

Set 3
Target: ABI1, truncated, D143A, DHFR fusion (Arabidopsis thaliana, UniProt P49597)
Technique: DHFR PCA, dose-response
Matrix: yeast
Setting: Hill fit, mean, not affinity
Together with: (+)-ABA, dose series
Reading: lower = more sensitive
Starting sequence: PYL1, truncated, DHFR fusion (Arabidopsis thaliana, UniProt Q8VZS8); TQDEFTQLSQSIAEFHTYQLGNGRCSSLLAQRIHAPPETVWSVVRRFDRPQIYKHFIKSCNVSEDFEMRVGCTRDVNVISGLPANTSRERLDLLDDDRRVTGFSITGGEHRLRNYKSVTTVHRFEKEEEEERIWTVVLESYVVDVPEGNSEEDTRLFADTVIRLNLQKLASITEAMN
| Substitution | ABA EC50 [µM] |
| --- | --- |
| T86E | 13.8 |
| S117C | 74.5 |
| S150R | 46.1 |
| R113H | 1.8 |
| E147Q | 2.76 |
| V70F | 94.5 |
| E4K | 4.92 |
| R132V | 1.98 |
| R155K | 3.27 |
| N77L | 4.31 |
| G108R | 529 |
| E147S | 3.09 |
| P37D | 26.1 |
| L166I | 260 |
| Q167K | 0.645 |
| G148D | 7.95 |
| C72R | 25.4 |
| V142C | 2.54 |

Set 4
Target: RING finger protein unkempt homolog, zinc fingers 1-6, GST-SBP tag (UNK, Homo sapiens, UniProt Q9C0B0, residues 30-357)
Chain of UniProt Q9C0B0 (30-357, looked up): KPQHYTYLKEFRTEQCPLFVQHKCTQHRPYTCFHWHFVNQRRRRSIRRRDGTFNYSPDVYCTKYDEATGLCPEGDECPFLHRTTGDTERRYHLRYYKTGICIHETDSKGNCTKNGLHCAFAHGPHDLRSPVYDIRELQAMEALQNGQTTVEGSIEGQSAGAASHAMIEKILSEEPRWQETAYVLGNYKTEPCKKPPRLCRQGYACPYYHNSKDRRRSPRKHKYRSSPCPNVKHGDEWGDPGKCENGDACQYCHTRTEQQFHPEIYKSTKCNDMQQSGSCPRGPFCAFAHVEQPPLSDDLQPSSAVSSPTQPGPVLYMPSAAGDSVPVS
Technique: RNA Bind-n-Seq
Molecule type: RNA
Matrix: in vitro
Tested at: not given
Setting: RNA with constant flanks, human and mouse sites, ends assumed
Relative to: input RNA pool
Reading: higher = stronger binding
| Sequence | bound/input enrichment [ratio] |
| --- | --- |
| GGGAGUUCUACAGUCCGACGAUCAGAGAAGAGAUUCUGGCAUUUAUUAAGUCUUGCCAACAUGAAUGUGGUGGAAUAAGUGCUAGUAUCGGACAUGAUCCUCAUCUUUUAUACACUCUUAGUGCUGUCCAGAUUCUUACGCUGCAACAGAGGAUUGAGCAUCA | 0.135 |
| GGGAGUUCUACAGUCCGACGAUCGCUGAUUUUGAGAAGGUUUUCUCUAUUGGACCAGUAUUCAGAGCGGAAGACUCUAAUACCCAUAGACAUCUAACUGAGUUUGUUGGUUUGGACAUUGAAAUGGCUUUUAAUUACCAUUACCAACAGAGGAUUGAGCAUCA | 2.51 |
| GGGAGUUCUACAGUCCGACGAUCACAAUCAUGCCUACUUUUAUCUUCGAACACAUUAUUAAACGGAUGGCUCCCAGCAUUAUGAAAAGCCUGAUGGAUCACACCAUUCCUGAAGUUUAAACCCUUGUACAAUGCAUCACGGCUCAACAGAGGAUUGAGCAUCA | 0.535 |
| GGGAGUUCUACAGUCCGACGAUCUACACUGAUGUUUAUCCAGAAAUCAUUGAACGUGCAUGCUUUGUCCUAGAGAAGAAAUUUGGGAUUCAACUGAAAGAAAUUGACAAAGAAGAACACCUGUAUAUUCUCAUCAGUACCCCCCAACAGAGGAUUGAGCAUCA | 0.349 |
| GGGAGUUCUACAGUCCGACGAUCCUCUUCCUCCUGCCCCUGGUUCCCUCCUCUCCUCCCACCCCCACAACCAGUACCAAUGUACAUAGUAAUUGUAAUGUUUUAGACUUUACAGAAACUUUCCUGUAUUCUGUAUAUAAAAAACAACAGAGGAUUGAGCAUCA | 9.61 |
| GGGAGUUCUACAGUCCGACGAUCCAGCUAGAAGAGCUGGCUUUUAGGGUCAUGCGUCUUCAGGAUGAGCUGGUCACCUUGCGUCUAGAGUGUACAAACCUGUACCGGAAGGGUCAUUUCACUUCACUUGAAUUGGUUCCACCCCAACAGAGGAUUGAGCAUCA | 0.149 |
| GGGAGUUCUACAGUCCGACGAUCAUAAUGUUUGAAUCCUUCAAUGUUCCAGGCUUGUACAUUGCUGUGCAGGCUGUUCUUGCCUUAGCUGCAUCCUGGACCUCAAGACAAGUAGGAGAGCGGACGCUGACGGGUACAGUAAUACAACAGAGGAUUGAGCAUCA | 0.266 |
| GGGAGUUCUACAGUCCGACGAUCGGAUUGGACCAGAUUAAGACACGAGAAGCAGUUGCCACACUUCACAAGGAUGGCAUAGAGUUUGCAUUUAAAUACCAAAAUCAGAAAGGACAAGAGUAUCCACCUCCUAAUCUGGCUUUUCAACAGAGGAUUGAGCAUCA | 0.256 |

Excerpt of the above (set 3):
| Substitution | ABA EC50 [µM] |
| --- | --- |
| G148D | 7.95 |
| R113H | 1.8 |
| N77L | 4.31 |
| L166I | 260 |
| Q167K | 0.645 |
| E147Q | 2.76 |
